{"data": "Results from different studies", "note": "A part holds a random share of what one study measured. Positions count from the first letter of the parent shown."}
{"data": "Set 1", "target": "RNA binding protein fox-1 homolog 2, RRM domain, GST-SBP tag (RBFOX2, Homo sapiens, UniProt O43251-10, residues 100-194)", "technique": "RNA Bind-n-Seq", "form": "RNA", "matrix": "in vitro", "tested at": "365 nM", "notes": "natural RNA segment, single round, ends assumed", "relative to": "no-protein control", "direction": "higher = stronger binding", "Residues (chain)": "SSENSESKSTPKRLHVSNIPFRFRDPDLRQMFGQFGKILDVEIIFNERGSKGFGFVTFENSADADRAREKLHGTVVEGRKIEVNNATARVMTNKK"}
{"Strand": "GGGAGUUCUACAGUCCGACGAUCUGGAUCAUGUGAUCAUUGUGAACACCUCGUGAGCUUUAAAAUAAAGUCCACCCUGUGGUGUCAUUUCAAGCUGUUGGCUUUGUCUCCGAUCGGCAUUGGGAAAAGGAGUCUGGAAUUCUCGGGUGCCAA", "RBNS enrichment (R)": 0.431}
{"Strand": "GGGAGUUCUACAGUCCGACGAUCUGUGUGUGGUGUCGCGCCCUCUCCCCUUGGGGGCUGGGUGGGCACACCCUCCCCUCUUGUCUACUCACUCCUAGGGCGUUUCUUUGCCGAUUUUUGAAUGUGAUUUUAAAUGGAAUUCUCGGGUGCCAA", "RBNS enrichment (R)": 5.51}
{"Strand": "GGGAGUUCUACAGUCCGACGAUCGAUAUAUUUUUACAAUCCUGCAAACUUCCUUGAGUCACUCACGACUCCCCCUGAGGUCACUUCCUGGUAGUGUCCCAAUGCUCUGUGUGCAGUUACUUCAGGUUGAAGUUUGGAAUUCUCGGGUGCCAA", "RBNS enrichment (R)": 0.393}
{"Strand": "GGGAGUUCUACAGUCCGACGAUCUCAGACAGCCAGGCACCAGAAGUGAGAGCAGAAGUCUGCAUCCUGCCGAGCCGCCGCAGACGGAGCCCCGCUGCUGACUGGACCCUCUCUGGCCCUGUGGUUCGGUUCUCUGGAAUUCUCGGGUGCCAA", "RBNS enrichment (R)": 0.347}
{"Strand": "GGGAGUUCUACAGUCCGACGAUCACCAUAUAAUAAAAAUACUUAACUAAAUUGACAGUUAUAAAAAUAAAUCAGUGAAAUGUACCUUAUACUUUAAUAAAAAAUGUUUUCAGAAAUAGAUAAGUGAAAGCUGAUGGAAUUCUCGGGUGCCAA", "RBNS enrichment (R)": 0.464}
{"Strand": "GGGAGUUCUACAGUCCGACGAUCUCAACCUGAGACCAAUAUGCCAGGCCAAGCACAGCCUCCUGGUAUCUCUGGAGCACAACUACAGCAAACCUCCUCAGUGCCUACGGGACUUGCCAGCAGUGGAGCAUGCAUGGAAUUCUCGGGUGCCAA", "RBNS enrichment (R)": 1.44}
{"Strand": "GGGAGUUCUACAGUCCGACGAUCGGGUGUCGGCUGCGGCAUUAAAUUCAUCAUCUCAACCCAGAGUGUCUGGUCUCCCUGCUCUUUCUGCAUGGUUGUGUCCCUAGUCCUAAGCUUUGGUUCUUUAGGGUGACUGGAAUUCUCGGGUGCCAA", "RBNS enrichment (R)": 6.45}
{"Strand": "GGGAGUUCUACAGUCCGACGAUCGGCUCCUUAUUGCUGCUUAGGCCUAGAAAGUUUAAGUAUGUGGAAGAGGAGAGUGAGUUGUAAGUUAGAUAAGGUGAAGGGAAUGGAGGGAAACAGGCAGCCUAGUGGGGUGGAAUUCUCGGGUGCCAA", "RBNS enrichment (R)": 1.27}
{"data": "Set 2", "target": "ABI1, truncated, D143A, DHFR fusion (Arabidopsis thaliana)", "technique": "DHFR PCA, deep sequencing", "matrix": "yeast", "notes": "methotrexate growth selection, single substitutions", "with": "(+)-ABA 0.39 µM", "relative to": "wild-type fitted maximum", "direction": "higher = stronger binding", "starting sequence": "PYL1, truncated, DHFR fusion (Arabidopsis thaliana); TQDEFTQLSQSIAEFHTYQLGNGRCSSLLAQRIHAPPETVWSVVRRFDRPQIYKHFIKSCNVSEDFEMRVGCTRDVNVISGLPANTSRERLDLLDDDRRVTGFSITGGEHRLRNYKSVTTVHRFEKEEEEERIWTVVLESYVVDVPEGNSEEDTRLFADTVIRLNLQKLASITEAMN; partner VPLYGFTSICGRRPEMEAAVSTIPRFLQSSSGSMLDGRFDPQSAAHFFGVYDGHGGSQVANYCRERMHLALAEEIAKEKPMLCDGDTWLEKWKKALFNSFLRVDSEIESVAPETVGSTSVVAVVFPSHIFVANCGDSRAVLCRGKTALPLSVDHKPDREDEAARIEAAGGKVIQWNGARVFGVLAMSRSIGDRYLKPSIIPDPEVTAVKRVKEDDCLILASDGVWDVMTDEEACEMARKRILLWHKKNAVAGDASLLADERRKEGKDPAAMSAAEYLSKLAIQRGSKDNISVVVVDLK"}
{"Substitution": "T73M", "relative binding score [%]": 55.2}
{"Substitution": "T119D", "relative binding score [%]": -15.5}
{"Substitution": "A13C", "relative binding score [%]": 19.5}
{"Substitution": "R111S", "relative binding score [%]": -2.19}
{"Substitution": "E127R", "relative binding score [%]": 46.4}
{"Substitution": "T160I", "relative binding score [%]": -17.9}
{"Substitution": "T173A", "relative binding score [%]": 43.7}
{"Substitution": "F15W", "relative binding score [%]": 45.1}
{"Substitution": "D95S", "relative binding score [%]": 4.44}
{"Substitution": "A84W", "relative binding score [%]": 98.9}
{"Substitution": "P37M", "relative binding score [%]": -4.02}
{"Substitution": "T86M", "relative binding score [%]": 30.7}
{"Substitution": "I172R", "relative binding score [%]": 6.51}
{"Substitution": "L29C", "relative binding score [%]": 18.4}
{"Substitution": "I33C", "relative binding score [%]": 6.23}
{"Substitution": "L164M", "relative binding score [%]": 50.9}
{"Substitution": "F5Q", "relative binding score [%]": 24.7}
{"Substitution": "E152W", "relative binding score [%]": 4.94}
{"Substitution": "T120N", "relative binding score [%]": -4.52}
{"data": "Set 3", "target": "Interferon regulatory factor 5, full length, phosphomimetic (IRF5, Homo sapiens, UniProt Q13568-2, residues 1-514, K96S/S451D/S453D/S456D/S462D)", "technique": "protein-binding microarray", "form": "double-stranded DNA, one strand shown", "matrix": "in vitro", "tested at": "250 nM", "notes": "60-bp whole probe", "with": "salmon DNA 0.4 mg/ml", "relative to": "random background probes", "direction": "higher = stronger binding", "constant ends, left off below": "GCCTAGCAC … GTCTTGATTCGCTTGACGCTGCTG"}
{"Strand": "TTCGGACTGGACTATCGGTTAGTGCTA", "log fluorescence [z-score]": 5.86}
{"Strand": "TTAGGTATCGGGCTTCGGTTAGTGCTA", "log fluorescence [z-score]": 2.31}
{"Strand": "GACGGATTCGGGACTGGGGACGTGCTA", "log fluorescence [z-score]": -0.248}
{"Strand": "TAGAAACTCGTGTTTTTCTCCGTGCTA", "log fluorescence [z-score]": 1.04}
{"Strand": "ATTACTCCCCAACTCGCCTTGTGCTAG", "log fluorescence [z-score]": 0.111}
{"Strand": "GCCGATTTCGGGTTTCGAGACGTGCTA", "log fluorescence [z-score]": 6.22}
{"Strand": "GACGGGCTGCTACTGCTGACGTGCTAG", "log fluorescence [z-score]": -0.695}
{"Strand": "TCACCTTTTAAGTTCTCACTGTGCTAG", "log fluorescence [z-score]": 0.767}
{"Strand": "TTAGGTATCGGGTTTGGGTTAGTGCTA", "log fluorescence [z-score]": 3.1}
{"Strand": "GCCGGACTGGGGTATCGGGACGTGCTA", "log fluorescence [z-score]": -0.284}
{"Strand": "TTAGAACTGAATCTCGATTAGTGCTAG", "log fluorescence [z-score]": 0.429}
{"Strand": "AACGGTTTCGACTATCGGGACGTGCTA", "log fluorescence [z-score]": 7.92}
{"Strand": "GACGAACTGCGTTTCGAGACGTGCTAG", "log fluorescence [z-score]": 1.16}
{"Strand": "GACGGTCTCCTGTTCCTGACGTGCTAG", "log fluorescence [z-score]": -0.0507}
{"Strand": "TTAGATATCGGGTATCGATAAGTGCTA", "log fluorescence [z-score]": 5.62}
{"Strand": "GATGGAAACTTAAACTAGAAAGTGCTA", "log fluorescence [z-score]": 0.969}
{"Strand": "TTAGGTCTCGGACTGGGATAGTGCTAG", "log fluorescence [z-score]": -0.255}
{"data": "Set 4", "cell line": "yeast with cyclin A1-Cln2 chimera", "read-out": "cell growth", "action": "binder", "technique": "competitive growth deep sequencing", "form": "peptide", "tested at": "concentration not given", "notes": "peptide tiling library", "direction": "direction not given"}
{"Sequence": "IPMIAKNLMCELDE", "growth enrichment score": 0.0589}
{"Sequence": "PKNAKRNLSSEFAN", "growth enrichment score": 0.17}
{"Sequence": "GTPKRCLDLSNLSSGE", "growth enrichment score": 0.324}
{"Sequence": "PKRAKRKLYTSEISSP", "growth enrichment score": 0.498}
{"Sequence": "ASVLSKPIFCFVKD", "growth enrichment score": 0.132}
{"Sequence": "TQERKQIHCLSEDELS", "growth enrichment score": -0.324}
{"Sequence": "TLPYDLACTGGDFVLF", "growth enrichment score": -0.445}
{"Sequence": "HPESPPRKRLKSKGSD", "growth enrichment score": 0.671}
{"data": "Set 5", "target": "Sal-like protein 4, full length isoform B (SALL4, Homo sapiens, UniProt Q9UJQ4-2, residues 1-616)", "technique": "universal PBM", "form": "double-stranded DNA, one strand shown", "matrix": "in vitro", "tested at": "not given", "notes": "8-mer, flanks averaged, mean of replicates", "direction": "higher = stronger binding", "Residues (chain)": "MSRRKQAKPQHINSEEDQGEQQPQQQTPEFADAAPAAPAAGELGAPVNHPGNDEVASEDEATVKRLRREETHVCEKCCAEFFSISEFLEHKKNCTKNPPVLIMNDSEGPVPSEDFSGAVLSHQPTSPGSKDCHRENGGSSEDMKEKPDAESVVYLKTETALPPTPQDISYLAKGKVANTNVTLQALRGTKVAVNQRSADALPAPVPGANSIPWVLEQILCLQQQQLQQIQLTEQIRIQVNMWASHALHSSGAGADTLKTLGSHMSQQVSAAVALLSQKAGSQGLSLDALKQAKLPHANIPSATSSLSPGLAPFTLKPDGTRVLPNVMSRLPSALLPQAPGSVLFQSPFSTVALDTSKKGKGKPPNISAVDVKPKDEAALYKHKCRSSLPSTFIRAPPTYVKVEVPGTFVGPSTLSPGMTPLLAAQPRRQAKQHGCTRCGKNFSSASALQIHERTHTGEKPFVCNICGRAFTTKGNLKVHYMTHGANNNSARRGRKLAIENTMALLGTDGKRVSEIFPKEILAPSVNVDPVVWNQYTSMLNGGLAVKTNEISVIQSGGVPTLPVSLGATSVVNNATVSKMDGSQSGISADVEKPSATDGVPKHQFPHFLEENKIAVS"}
{"Strand": "ACTGTGTG", "E-score": -0.137}
{"Strand": "TCAACTCA", "E-score": 0.0149}
{"Strand": "GACACCCA", "E-score": -0.207}
{"Strand": "ACTGAAGT", "E-score": -0.00818}
{"Strand": "ACGATTCT", "E-score": 0.116}
{"Strand": "AAGTACAC", "E-score": 0.187}
{"Strand": "ATACGTAA", "E-score": 0.308}
{"Strand": "GTGAGCAC", "E-score": -0.0934}
{"Strand": "AGTAACAA", "E-score": 0.174}
{"Strand": "CGGTTGTC", "E-score": -0.102}
{"Strand": "CCCCTCAA", "E-score": -0.11}
{"Strand": "TAACTTCA", "E-score": 0.213}
{"Strand": "ACAATAAA", "E-score": 0.34}
{"Strand": "AAACTATT", "E-score": 0.302}
{"Strand": "TGGCGAAA", "E-score": -0.0308}
{"Strand": "CGGGGTTA", "E-score": -0.129}
{"Strand": "AGAAATTG", "E-score": 0.273}
{"note": "Repeated from above (set 2):"}
{"Substitution": "R111S", "relative binding score [%]": -2.19}
{"Substitution": "E127R", "relative binding score [%]": 46.4}
{"Substitution": "T160I", "relative binding score [%]": -17.9}
{"Substitution": "T173A", "relative binding score [%]": 43.7}
{"Substitution": "F15W", "relative binding score [%]": 45.1}
{"Substitution": "D95S", "relative binding score [%]": 4.44}
{"Substitution": "A84W", "relative binding score [%]": 98.9}
{"Substitution": "P37M", "relative binding score [%]": -4.02}
{"Substitution": "T86M", "relative binding score [%]": 30.7}
{"Substitution": "I172R", "relative binding score [%]": 6.51}
